# Measurements gathered from unrelated publications.
# Lines come from different studies, so protocols differ. Values joined by “and” are separate records of one study, mostly repeats; a detail may differ.
# UCHL1: Ubiquitin carboxyl-terminal hydrolase isozyme L1 (UCHL1, Homo sapiens, UniProt P09936)
# Sequence of UniProt P09936 (whole entry, looked up): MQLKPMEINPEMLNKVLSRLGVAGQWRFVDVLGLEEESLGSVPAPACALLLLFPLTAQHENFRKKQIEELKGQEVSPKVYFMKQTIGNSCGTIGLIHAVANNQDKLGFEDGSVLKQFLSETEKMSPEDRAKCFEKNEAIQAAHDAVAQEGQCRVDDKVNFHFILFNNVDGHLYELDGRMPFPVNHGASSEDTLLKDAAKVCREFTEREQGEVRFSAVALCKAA
SMILES,tested on,assay,system,setting,scale,quantity,result
CCCN1CCN(c2ccc3[nH]c(-c4ccc5[nH]c(-c6cc(OC)c(OC)c(OC)c6)nc5c4)nc3c2)CC1,HCC 2998,SRB,,"10 µM, 48 h",,growth percent,94.2%
Cc1cc(C)n(C(=S)[S][Au][PH](CCCCCC[PH]([Au][S]C(=S)n2nc(C)cc2C)(c2ccccc2)c2ccccc2)(c2ccccc2)c2ccccc2)n1,HCC 2998,"cell growth, NCI-60 screen",,colon cancer,,log10 TGI,-6.1
C#C[C@@]1(O)[C@@H](CO)O[C@@H](n2cc(Cl)c3c(N)ncnc32)[C@@H]1O,HCC 2998,SRB,,NCI-60 screen,,TGI,0.501 µM and 0.565 µM
CCCCN1CCN(c2ccc3[nH]c(-c4ccc5[nH]c(-c6ccc(OCC)cc6)nc5c4)nc3c2)CC1,HCC 2998,SRB,,"10 µM, 48 h",,growth percent,90.3%
O=C1NC(=NCc2cccs2)S/C1=C\c1ccc2ncccc2c1,HCC 2998,MTS,colon cancer,,,IC50,> 10 µM
Cc1n[nH]c2nc(-c3ccc(Cl)cc3)c3c(NC(=O)c4ccccc4)nnc-3n12,HCC 2998,SRB,,"10 µM, NCI60 single-dose screen, colon cancer",relative to: untreated,cell growth,115%
Cc1cc(=O)[nH]c(=O)n1Cc1cn(-c2cc3ccccc3oc2=O)nn1,HCC 2998,NCI60 single-dose screen,,10 µM,,growth percentage,106%
O=C(Nc1nnc2n3c(nc(-c4ccc(Cl)cc4)c1-2)SCC3=O)c1ccccc1,HCC 2998,SRB,,"10 µM, NCI60 single-dose screen, colon cancer",relative to: untreated,cell growth,87.1%
O=c1ccn(Cc2cn(-c3cc4ccccc4oc3=O)nn2)c(=O)[nH]1,HCC 2998,NCI60 single-dose screen,,10 µM,,growth percentage,104%
CCCN1CCN(c2ccc3nc(-c4ccc5nc(-c6cc(OC)ccc6OC)[nH]c5c4)[nH]c3c2)CC1,HCC 2998,SRB,,"10 µM, 48 h",,growth percent,113%
O=C(Nc1nnc2[nH]c(=S)[nH]c(-c3ccc(Cl)cc3)c1-2)c1ccccc1,HCC 2998,SRB,,"10 µM, NCI60 single-dose screen, colon cancer",relative to: untreated,cell growth,98.8%
CCCCN1CCN(c2ccc3nc(-c4ccc5nc(-c6cc(OC)ccc6OC)[nH]c5c4)[nH]c3c2)CC1,HCC 2998,SRB,,"10 µM, 48 h",,growth percent,105%
O=C1NC(c2ccccc2)(c2ccccc2)C(=O)N1Cc1cn(-c2c3ccccc3nc3ccccc23)nn1,HCC 2998,NCI60 single-dose screen,,10 µM,,growth percentage,104%
CCCCN1CCN(c2ccc3[nH]c(-c4ccc5[nH]c(-c6ccc(OCC)c(OCC)c6)nc5c4)nc3c2)CC1,HCC 2998,SRB,,"10 µM, 48 h",,growth percent,-80.4%
Cc1cc(-c2ccccc2)n(-c2nc(-c3ccc(Cl)cc3)c3c(NC(=O)c4ccccc4)nnc-3[nH]2)n1,HCC 2998,SRB,,"10 µM, NCI60 single-dose screen, colon cancer",relative to: untreated,cell growth,103%
CC1CC(O)(C#CC(C)(C)OC(=O)c2ccccc2)C(C)CN1C (centres unmarked),UCHL1,"covalent, intact protein LC-MS",,12.5 µM,,labelling,31.5%
O=C(Nc1nnc2n3c(Cc4ccccc4)n[nH]c3nc(-c3ccc(Cl)cc3)c1-2)c1ccccc1,HCC 2998,SRB,,"10 µM, NCI60 single-dose screen, colon cancer",relative to: untreated,cell growth,108%
O=C1NC(c2ccccc2)(c2ccccc2)C(=O)N1Cc1cn(-c2cc3ccccc3oc2=O)nn1,HCC 2998,NCI60 single-dose screen,,10 µM,,growth percentage,107%
C#C[C@@]1(O)[C@@H](CO)O[C@@H](n2ccc3c(N)ncnc32)[C@@H]1O,HCC 2998,SRB,,NCI-60 screen,,TGI,3.12 µM
Cn1cncc1C1=CN(c2ncnc3[nH]cnc23)CCS1,HCC 2998,,,colon cancer,,GI50,32.4 µM
CCCN1CCN(c2ccc3[nH]c(-c4ccc5[nH]c(-c6ccc(OCC)c(OCC)c6)nc5c4)nc3c2)CC1,HCC 2998,SRB,,"10 µM, 48 h",,growth percent,-79.5%
CSc1nc(-c2ccc(Cl)cc2)c2c(NC(=O)c3ccccc3)nnc-2[nH]1,HCC 2998,SRB,,"10 µM, NCI60 single-dose screen, colon cancer",relative to: untreated,cell growth,107%
C=CCNC(=O)C(C#N)=Cc1cccc(C(F)(F)F)c1,UCHL1,"covalent, intact protein LC-MS",,12.5 µM,,labelling,17.5%
